Assay results from different studies.
Every numbered part comes from another study and shows a few of its results, in no order. Changes are numbered by the printed parent chain.

Set 1 — method: protein-binding microarray; molecule type: double-stranded DNA, one strand shown; matrix: in vitro; concentration: 250 nM; setting: 60-bp whole probe; with: salmon DNA 0.4 mg/ml; reference: random background probes; reading: higher = stronger binding; shared flanks, not repeated: GCCTAGCAC … GTCTTGATTCGCTTGACGCTGCTG
Target: Interferon regulatory factor 5, full length, phosphomimetic (IRF5, Homo sapiens, UniProt Q13568-2, residues 1-514, K96S/S451D/S453D/S456D/S462D)
Sequence	log fluorescence [z-score]
TTAGGTTTCCTTTGCCTTTAGTGCTAG	0.72
TTAGGACTGTGTATCGGTTAGTGCTAG	3.83
TGAGGTTTCGGACTGGGTTAGTGCTAG	3.47
TCACATCTCGGAGATCTCACTGTGCTA	0.0221
GTCGAACTGAGACTGGAGACGTGCTAG	-0.421
ACACTTTCCCCTTCCTAGTTGTGCTAG	2.39
TTAGATTCCAGTTTCGAATAGTGCTAG	5.91
GACGAACTGAGTATCGACACGTGCTAG	2.16
GACGGTTTCCTTTCGCTGACGTGCTAG	4.2
TTGGATATCAGTATCGATTAGTGCTAG	7.18
GACGGTTTGGGTTCCGGGACGTGCTAG	-0.0427
TTATCAATCATTTTCGTTTTGTGCTAG	5.05
TCAGTTTTCATTATTGTACTGTGCTAG	2.82
TTAGATCTCAGTCGCGATTAGTGCTAG	0.102
TCATAACTCAAGATTCCTACTGTGCTA	0.273
TCACTCTTCCTTTACTTACTGTGCTAG	1.07
TTAGGTTTCAGTTTCGGTTAGTGCTAG	11
GACGGACTGGACTTTCGGGAAGTGCTA	4.53
TCATTTATCAATCATTTTACTGTGCTA	1.69
TGTGCTTTCCTGATGGTTTTGTGCTAG	0.692

Set 2 — target: DDIT3, bZIP domain (human); method: DHFR protein complementation; matrix: yeast; reference: wild-type JUN-FOS pair; reading: higher = stronger binding
Setting: single substitutions, most at no-binding floor
Starting sequence: JUN, bZIP domain (human); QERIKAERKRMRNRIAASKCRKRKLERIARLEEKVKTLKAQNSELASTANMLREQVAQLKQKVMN; partner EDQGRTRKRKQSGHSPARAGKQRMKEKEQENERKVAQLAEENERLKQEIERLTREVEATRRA
Variant	binding fitness [natural log]
N42W	-0.878
S43K	0.182
M51K	0.111
E32Q	-0.222
E33Q	-0.0497
T48M	0.0517
Q41A	-0.0375
L45Y	-0.588
A29Y	-0.133
V35K	-0.434
E33V	-0.296
L45K	-1.4
L45A	-1.08
E32M	-0.291
A57D	0.0228
A29D	-0.0954
K36W	-0.328
I28T	-0.17
M51P	-1.35
L38F	-0.602
S43G	-0.00573
E32K	-0.181

Set 3 — method: DHFR PCA, deep sequencing; matrix: yeast; with: (+)-ABA 710 µM; reference: wild-type fitted maximum; reading: higher = stronger binding
Target: ABI1, truncated, D143A, DHFR fusion (Arabidopsis thaliana)
Setting: methotrexate growth selection, single substitutions
Starting sequence: PYL1, truncated, DHFR fusion (Arabidopsis thaliana); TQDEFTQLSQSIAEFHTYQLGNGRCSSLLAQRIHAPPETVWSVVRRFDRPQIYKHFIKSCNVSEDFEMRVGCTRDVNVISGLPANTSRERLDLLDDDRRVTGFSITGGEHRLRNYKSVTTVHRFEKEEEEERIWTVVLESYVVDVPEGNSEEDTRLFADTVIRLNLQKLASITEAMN; partner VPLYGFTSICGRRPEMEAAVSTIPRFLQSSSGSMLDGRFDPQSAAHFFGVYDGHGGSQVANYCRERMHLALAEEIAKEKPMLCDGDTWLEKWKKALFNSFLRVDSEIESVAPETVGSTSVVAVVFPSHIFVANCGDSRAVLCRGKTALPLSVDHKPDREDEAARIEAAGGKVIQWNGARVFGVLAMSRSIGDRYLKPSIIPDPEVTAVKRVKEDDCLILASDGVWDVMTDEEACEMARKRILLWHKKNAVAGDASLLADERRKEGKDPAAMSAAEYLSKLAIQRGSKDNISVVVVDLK
Variant	relative binding score [%]
L93G	59.7
N149T	90.4
R88C	103
V143W	1.65
F103N	-26.7
H110S	77.1
N22A	105
R90E	95.1
I172T	87.8
N22K	104
L112I	63.7
A170Q	96.6
I52G	96.5
L8E	82.8
D159R	64
K116S	107
R74T	-6.25
R32M	94.3
T6M	107
N77L	100
N22W	102
L28W	91.8
L156V	102

Set 4 — method: RNA Bind-n-Seq; molecule type: RNA; matrix: in vitro; concentration: 365 nM; reference: no-protein control; reading: higher = stronger binding
Target: RNA binding protein fox-1 homolog 2, RRM domain, GST-SBP tag (RBFOX2, Homo sapiens, UniProt O43251-10, residues 100-194)
Setting: natural RNA segment, single round, ends assumed
Residues (chain): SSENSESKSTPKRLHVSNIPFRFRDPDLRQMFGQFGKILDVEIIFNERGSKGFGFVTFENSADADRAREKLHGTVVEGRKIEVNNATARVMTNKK
Sequence	RBNS enrichment (R)
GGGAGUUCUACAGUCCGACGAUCACUCAAUGUCUUAGGUCAGGAGUUGUGUCUAGGCUGGAAGAGCCAAAGAAUAUUCCAUUUUCCUUUCCUUGUGGUUGAAAACCACAGUCAGUGGAGAGAUGUUUGGAAACUGGAAUUCUCGGGUGCCAA	0.364
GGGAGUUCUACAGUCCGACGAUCCCUGGGUCCGACUUCCCAAACACACUGGAGCUCGUUGAGCUGGCUGCGCAGCCUGCUUUGUCCUCCCAUCUCCGUGGACUCUGUGAAAAUGCCAAAGGAAGGAAGCCUCAUGGAAUUCUCGGGUGCCAA	1.09
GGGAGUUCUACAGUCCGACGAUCAUCAAACUCUUCACUUUUUUGACUCAAGUGUUGUUGUUCAGUCUCUCGCGUGUCAAUGUGGUCAUGGUUCAUGAAACCGGACCCUCAAGAUGGAUGAUUGCUUUUAACUAUGGAAUUCUCGGGUGCCAA	0.345
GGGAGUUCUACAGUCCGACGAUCCACUGGGUUAUUUCUCCGUCCUCAUUGUCAUCUAGAACUAGCUUUAGGGUAGUGCCAGACAAACAUAUGAUAUCAUGGUGUAAAAAAAGAAACACAUGCGUGCAGACACAUGGAAUUCUCGGGUGCCAA	0.208
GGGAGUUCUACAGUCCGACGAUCUAAAUUGAUGUGUUAUUAUGUCAAAAGCCGGAUCUAUUAAAGAAACAAUUGGCCUUUCUGAGCUGAUUUUUCCAUCUUUUGUAAUUAUCUUUAUUAAAAAAUUGUACUUGUGGAAUUCUCGGGUGCCAA	0.473
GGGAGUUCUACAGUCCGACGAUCAUGAUGAUGUGCACACAGUCAUUCUACAGGAGCUUUGCACAGCCUUCCUGCAGUUCUCAAAGGGGAGCCUGCAGACUAGGCCUUCAGAGGGUUCCUUCUGUUUCCUAUUUUGGAAUUCUCGGGUGCCAA	0.356
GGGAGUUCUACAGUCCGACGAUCUGUAUGUGUGUUGUGCAUCUUCCUUGUUGUUUUAGAGUUUCCUAAAUUUUUUGCUUCUGGGGACUUGAGUAUUUUUAAAUGUUCUUAAAAUUAUAUGAAUCUACCCAGAAUGGAAUUCUCGGGUGCCAA	2.87
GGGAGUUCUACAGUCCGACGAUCGGGCAGAGCCUGUCCCCGCCUUCCCUCACUCUUCCUCAUCCUGCUUCUCUUUUCCUCGCAGAUGAUAAAAGGAAUCUGGCAUUCUACACCUGGACCAUUUGAUUGUUUUAUGGAAUUCUCGGGUGCCAA	1.28
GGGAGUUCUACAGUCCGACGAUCGAUUAUCAUCUUAAGAGAUGCUUAAACAUGGUAAAUCACUUCAUAUUAUGAAAGUUUUACACUUAGUAUUCAUGUUAACAUUGGGUGCAAUAACUUAGUAGUACUUGCUUUGGAAUUCUCGGGUGCCAA	0.242
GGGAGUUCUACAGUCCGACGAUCUUUAAAACAAAUUUGUGCAAACACUGCUAGAGUCAUUUUGAAGCUCAAGCAUUUUCACUUUGUUUCUUACAUGUGUACUUUUUUGUUUACUUGUGAAAAUGGCCAUCUUUUGGAAUUCUCGGGUGCCAA	0.348
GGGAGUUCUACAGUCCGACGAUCAAAUAACUCUUUACAAAUAAGGGUCGGGCACGGUGGCUCACGCCUGUAAUCCCAGCUCUUUGGGAGGCCGAGGUGGGCAGAUCACGAGGUCAGGAGAUCGAGACCAUCCUUGGAAUUCUCGGGUGCCAA	0.347
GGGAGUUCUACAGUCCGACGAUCCAGCUCGCCUGGAUCUGACUCCAAGUGGCUUGGGUGCCUGGUGGGCAGCACCUUGGAGACCAAGCAGCCAUCCCAGCGAAGACUUACCUGCCUGGCCCCACCACCUGGAGUGGAAUUCUCGGGUGCCAA	0.335

Set 5 — target: CCNF, cyclin fold, Cln2 fusion (human); method: yeast growth competition, sequencing; matrix: yeast; setting: strong parent motif; reference: not given; reading: higher = stronger binding
Starting sequence: CDKN1B docking peptide (human); PSACRNLFGPVDH; partner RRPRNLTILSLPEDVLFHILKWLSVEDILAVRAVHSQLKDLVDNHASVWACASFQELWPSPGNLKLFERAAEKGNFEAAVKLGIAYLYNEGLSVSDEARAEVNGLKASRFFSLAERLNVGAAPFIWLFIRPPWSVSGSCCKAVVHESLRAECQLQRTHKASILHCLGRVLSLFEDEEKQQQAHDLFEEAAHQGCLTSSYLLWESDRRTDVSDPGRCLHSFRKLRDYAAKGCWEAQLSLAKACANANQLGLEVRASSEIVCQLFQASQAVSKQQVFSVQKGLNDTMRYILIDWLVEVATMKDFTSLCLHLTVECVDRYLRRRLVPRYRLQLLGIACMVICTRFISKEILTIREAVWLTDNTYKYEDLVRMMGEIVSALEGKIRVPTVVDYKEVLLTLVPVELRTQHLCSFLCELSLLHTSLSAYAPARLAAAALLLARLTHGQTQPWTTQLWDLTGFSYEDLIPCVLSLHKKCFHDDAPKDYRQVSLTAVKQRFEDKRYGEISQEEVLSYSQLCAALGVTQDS
Variant	normalised enrichment score
S2D	6.45
G9E	4.4
H13I	7.03
V11D	6.94
P1L	7.65
V11M	6.88
V11P	7.43
N6A	5.79
L7W	0.766
A3L	7.5
R5E	0.346
G9F	6.63
A3P	5.77
S2V	6.09
P1C	6.83
F8K	0.719
L7R	0.703
C4Y	3.62
R5K	3.79
C4Q	5.71
N6E	5.36
H13K	7.32
P1F	8.06
P1N	6.04
R5N	-0.287

For quick reference, copied from above (set 2):
Variant	binding fitness [natural log]
L45A	-1.08
E32M	-0.291
A57D	0.0228
A29D	-0.0954
K36W	-0.328
I28T	-0.17
M51P	-1.35
L38F	-0.602
S43G	-0.00573
E32K	-0.181
